Assay results from different studies.
A part holds a random share of what one study measured. Several values in a cell are separate wells, animals, samples, runs or records.

Sample 1
SMILES: CN1CCC[C@H]1COc1nc2c(c(N3CCN(C(=O)C(F)(F)F)[C@@H](CC#N)C3)n1)CCN(c1cccc3cccc(Cl)c13)C2
Effect on: binding
Action: competitor
Technique: NanoBRET
Cells: HEK293
KRAS G13D: GTPase KRas (KRAS, Homo sapiens, UniProt P01116, G13D)
KRAS Q61R: GTPase KRas (KRAS, Homo sapiens, UniProt P01116, Q61R)
KRAS Q61H: GTPase KRas (KRAS, Homo sapiens, UniProt P01116, Q61H)
KRAS Q61L: GTPase KRas (KRAS, Homo sapiens, UniProt P01116, Q61L)
| target | setting | normalized BRET |
| --- | --- | --- |
| KRAS G13D | 3.7 µM | 42.1% and 72.7% and 72.3% and 48.5% |
| KRAS G13D | 11.1 µM | 24.1% and 46.3% and 43.2% and 15.5% |
| KRAS Q61R | 3.7 µM | 78.7% and 103% and 80.3% |
| GTPase KRas (KRAS, Homo sapiens, UniProt P01116, G12D) | 1.24 µM | 91.5% and 92.5% and 90.8% |
| KRAS Q61H | 33.3 µM | 18.4% and 12.5% and 23.8% and 29.8% |
| KRAS Q61L | 5.08 nM | 98.3% and 101% and 99.7% |
| KRAS Q61L | 15.2 nM | 94.8% and 93.7% and 90.1% |
| KRAS Q61H | 3.7 µM | 72.3% and 56.6% and 46.7% and 43.9% |
| KRAS Q61H | 11.1 µM | 27.7% and 35.1% and 21.9% and 52.7% |
| KRAS Q61R | 33.3 µM | 120% and 113% and 117% |
| KRAS Q61R | 412 nM | 106% and 88% and 91.6% |
| KRAS Q61R | 45.7 nM | 103% and 98.6% and 89.6% |
| KRAS Q61R | 5.08 nM | 104% and 91.3% and 99.5% |

Sample 2
Structure (SMILES): C[C@@H]1CN(c2ccc(-c3cc(C(=O)NCCOCCOCCOCCOCCNC(=O)Cn4cc(-c5[nH]cc(C(=O)N[C@@H](CC(N)=O)c6ccc(F)c(Cl)c6)c5-c5ccc(Cl)cc5F)cn4)ccc3F)cc2NC(=O)c2c[nH]c(=O)cc2C(F)(F)F)C[C@H](C)N1C
Effect on: thermal unfolding
Technique: differential scanning fluorimetry
Tested at: 5.5 µM
Direction: higher = more unfolded
WDR5: WD repeat-containing protein 5 (WDR5, Homo sapiens, UniProt P61964)
DCAF1: DDB1- and CUL4-associated factor 1 (DCAF1, Homo sapiens, UniProt Q9Y4B6)
Chain of UniProt Q9Y4B6 (whole entry, looked up): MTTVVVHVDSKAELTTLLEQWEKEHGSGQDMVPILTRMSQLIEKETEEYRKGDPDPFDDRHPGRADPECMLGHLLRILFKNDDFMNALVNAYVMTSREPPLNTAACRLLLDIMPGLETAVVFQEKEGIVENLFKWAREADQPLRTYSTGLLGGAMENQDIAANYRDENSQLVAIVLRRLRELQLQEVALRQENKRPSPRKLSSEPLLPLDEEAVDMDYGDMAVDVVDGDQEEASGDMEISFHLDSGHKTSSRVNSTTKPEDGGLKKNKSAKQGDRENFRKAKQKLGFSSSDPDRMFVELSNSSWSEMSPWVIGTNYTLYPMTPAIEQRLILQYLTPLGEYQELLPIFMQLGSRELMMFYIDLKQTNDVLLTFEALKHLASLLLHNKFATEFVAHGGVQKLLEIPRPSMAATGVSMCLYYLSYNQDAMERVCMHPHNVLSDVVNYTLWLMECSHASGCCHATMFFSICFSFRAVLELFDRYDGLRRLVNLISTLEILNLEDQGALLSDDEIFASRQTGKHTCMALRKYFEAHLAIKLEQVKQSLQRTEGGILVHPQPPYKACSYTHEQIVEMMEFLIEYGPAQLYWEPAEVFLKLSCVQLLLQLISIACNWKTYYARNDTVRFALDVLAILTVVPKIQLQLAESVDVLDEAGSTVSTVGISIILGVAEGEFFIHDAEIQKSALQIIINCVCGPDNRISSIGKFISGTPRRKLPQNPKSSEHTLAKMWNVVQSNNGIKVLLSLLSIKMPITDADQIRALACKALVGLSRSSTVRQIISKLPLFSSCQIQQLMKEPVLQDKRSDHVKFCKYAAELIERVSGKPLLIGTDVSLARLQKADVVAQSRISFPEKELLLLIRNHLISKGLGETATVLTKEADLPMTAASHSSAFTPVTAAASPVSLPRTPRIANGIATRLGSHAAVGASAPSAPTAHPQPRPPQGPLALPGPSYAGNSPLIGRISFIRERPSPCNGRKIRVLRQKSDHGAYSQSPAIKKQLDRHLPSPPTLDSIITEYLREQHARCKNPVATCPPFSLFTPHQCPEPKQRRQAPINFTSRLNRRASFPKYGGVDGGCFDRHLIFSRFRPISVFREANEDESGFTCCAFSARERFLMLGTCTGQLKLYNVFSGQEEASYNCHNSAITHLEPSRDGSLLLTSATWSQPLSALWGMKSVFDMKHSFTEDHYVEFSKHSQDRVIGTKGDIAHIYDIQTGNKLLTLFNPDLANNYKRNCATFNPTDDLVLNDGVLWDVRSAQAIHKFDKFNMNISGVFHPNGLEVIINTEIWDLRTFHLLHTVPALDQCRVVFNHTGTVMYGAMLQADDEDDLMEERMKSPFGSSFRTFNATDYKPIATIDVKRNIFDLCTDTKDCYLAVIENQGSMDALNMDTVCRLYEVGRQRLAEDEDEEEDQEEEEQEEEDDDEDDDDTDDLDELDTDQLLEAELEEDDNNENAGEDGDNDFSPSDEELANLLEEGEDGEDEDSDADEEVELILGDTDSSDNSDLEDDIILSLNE
| target | setting | SYPRO Orange fluorescence |
| --- | --- | --- |
| WDR5 | 47.4 °C | 14400 a.u. |
| DCAF1 | 93.41 °C | 31600 a.u. |
| WDR5 | 44.8 °C | 14400 a.u. |
| WDR5 | 67.81 °C | 6940 a.u. |
| WDR5 | 69.41 °C | 6740 a.u. |
| WDR5 | 66.41 °C | 7190 a.u. |
| DCAF1 | 25 °C | 7400 a.u. |
| WDR5 | 32.4 °C | 14400 a.u. |
| WDR5 | 81.41 °C | 27900 a.u. |
| WDR5 | 53.01 °C | 14400 a.u. |
| WDR5 | 55.21 °C | 13500 a.u. |

Sample 3
Compound: Cc1ccc(O)c(C)c1-c1cnc2[nH]c(-c3cnc(N4CCC5(CC4)CC(N4CCN(c6ccc(N[C@H]7CCC(=O)NC7=O)cc6F)CC4)CO5)nc3)cc2c1C#N (single isomer, unassigned)
PKMYT1: Membrane-associated tyrosine- and threonine-specific cdc2-inhibitory kinase (PKMYT1, Homo sapiens, UniProt Q99640)
Chain of UniProt Q99640 (whole entry, looked up): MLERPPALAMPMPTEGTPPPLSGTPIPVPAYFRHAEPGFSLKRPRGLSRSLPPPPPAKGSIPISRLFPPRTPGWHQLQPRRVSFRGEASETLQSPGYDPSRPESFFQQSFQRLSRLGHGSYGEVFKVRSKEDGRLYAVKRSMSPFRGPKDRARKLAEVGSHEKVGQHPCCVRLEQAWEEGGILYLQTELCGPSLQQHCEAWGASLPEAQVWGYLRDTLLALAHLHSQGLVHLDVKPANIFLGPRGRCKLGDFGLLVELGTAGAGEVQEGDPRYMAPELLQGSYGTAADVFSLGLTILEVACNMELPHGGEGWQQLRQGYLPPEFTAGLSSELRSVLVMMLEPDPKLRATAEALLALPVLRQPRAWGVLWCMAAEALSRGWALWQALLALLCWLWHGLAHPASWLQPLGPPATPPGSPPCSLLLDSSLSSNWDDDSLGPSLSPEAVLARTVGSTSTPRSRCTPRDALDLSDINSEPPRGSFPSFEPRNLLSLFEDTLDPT
| tested on | assay | setting | inhibition |
| --- | --- | --- | --- |
| NCI-H1568 | cell growth | 4.572 nM | 2.03% |
| PKMYT1 |  | 370.37 nM | 97.3% and 99.8% |
| HCC1569 | automated immunoblotting, item: CDK1 phospho-Thr14 | concentration not given, 4 h after washout | 56% |
| RAF1 (Homo sapiens, UniProt P04049, Y340D/Y341D) | kinase activity, inhibitor, ADP-Glo | 10 µM | 66.7% |
| NCI-H1568 | cell proliferation | 370.37 nM | 14.2% and 17.4% |
| PKMYT1 |  | 1.524 nM | 23.9% and 26.8% |
| PKMYT1 | enzyme activity, inhibitor | 0.1235 µM | 98.1% |
| HCC1569 | automated capillary immunoblot, item: CDK1 phospho-Thr14 | 100 nM, 4 h | > 50% |
| PKMYT1 | enzyme activity, inhibitor | 1.524 nM | 26.3% |
| MKN-1 | cell proliferation | 1111.11 nM | 99.3% |
| RAF1 | KINOMEscan | 1000 nM | 72% |
| RKO | cell proliferation | 1.524 nM | 0.41% and 5.88% |
| U-251 MG | cell growth | 3333.33 nM | 86.1% |
| PKMYT1 | binding, HTRF | 3333.33 nM | 101% and 99.5% |

Sample 4
Structure (SMILES): Cc1ncsc1-c1ccc(C(CO)NC(=O)C2CC(O)CN2C(=O)C(C(C)C)n2cc(-c3ccc(COc4c(-c5c(C)c(F)cc6[nH]ncc56)c(C5CC5)cc5c(N6CC7CC6CN7)nc(OC6CCOCC6)nc45)cc3)nn2)cc1 (centres unmarked)
Target: GTPase KRas (KRAS, Homo sapiens, UniProt P01116, G12D)
Action: degrader
Technique: western blot
Host: mouse, PK-59 xenograft
Medium: tumour
Setting: unit not given
Reference: β-actin
| setting | KRAS G12D level |
| --- | --- |
| 30 mg/kg, 24 h | 0.0086 and 0.0055 and 0.0052 |
| 30 mg/kg, 72 h | 0.0067 and 0.0043 and 0.005 |
| 10 mg/kg, 6 h | 0.13 and 0.129 and 0.162 |
| 30 mg/kg, 2 h | 0.0939 and 0.0917 and 0.1 |
| 10 mg/kg, 144 h | 0.0423 and 0.0352 and 0.0446 |
| 30 mg/kg, 48 h | 0.02 and 0.0166 and 0.0186 |

Some of these lines once more (sample 1):
| target | setting | normalized BRET |
| --- | --- | --- |
| KRAS Q61L | 5.08 nM | 98.3% and 101% and 99.7% |
| KRAS Q61L | 15.2 nM | 94.8% and 93.7% and 90.1% |
| KRAS Q61H | 3.7 µM | 72.3% and 56.6% and 46.7% and 43.9% |
| KRAS Q61H | 11.1 µM | 27.7% and 35.1% and 21.9% and 52.7% |
| KRAS Q61R | 33.3 µM | 120% and 113% and 117% |
